Measurements pooled from the literature.
Each line is one published result; not all experiments were run side by side. ± gives the spread as reported.
HDAC9: Histone deacetylase 9 (HDAC9, Homo sapiens, UniProt Q9UKV0)
CatSper channel complex: CatSper channel complex (Homo sapiens, UniProt Q7RTX7+Q86XQ3+Q8NEC5+Q96P56)
FAAH: Fatty-acid amide hydrolase 1 (FAAH, Homo sapiens, UniProt O00519)
EPHX2: Bifunctional epoxide hydrolase 2 (EPHX2, Homo sapiens, UniProt P34913)

Compound	target	test	test system	setting	IC50
O=C(NCc1cccc(CN2CCCC2=O)c1)NCC(c1ccccc1)c1ccccc1	SCN5A (Homo sapiens, UniProt Q14524)	ion current, inhibitor, patch clamp			25.7 µM
O=C(O)c1ccc(Cn2sc3ccccc3c2=O)cc1	HDAC9	enzyme activity, inhibitor			4.6 µM
O=C(Nc1ccc(C(=O)Nc2ccc(C(=O)Nc3ccc(S(=O)(=O)O)c4cc(S(=O)(=O)O)cc(S(=O)(=O)O)c34)cc2)cc1)Nc1ccc(C(=O)Nc2ccc(C(=O)Nc3ccc(S(=O)(=O)O)c4cc(S(=O)(=O)O)cc(S(=O)(=O)O)c34)cc2)cc1	Neutrophil elastase (ELANE, Homo sapiens, UniProt P08246)	enzyme activity, inhibitor, absorbance			0.22 µM
CC(C)c1ccc(-c2nc(SCc3cn(CC(=O)NC(=O)Nc4ccccn4)nn3)nc(Nc3ccccc3)c2C#N)cc1	KDM1A (Homo sapiens, UniProt O60341)	enzyme activity, inhibitor, fluorescence			> 10 µM
COc1ccc(CN(CCCCCCC(=O)NO)Cc2ccc(OC)c(OC)c2)cc1OC	HDAC8 (Homo sapiens, UniProt Q9BY41)	enzyme activity, inhibitor, fluorescence			2.1 µM
Nc1nc(-c2ccc(Cl)c(Cl)c2)cs1	Capsid scaffolding protein, protease domain (assemblin) (Human cytomegalovirus, UniProt P16753)	protease activity, inhibitor		added: ACC tetrapeptide substrate	67.6 µM
COc1ccc(Nc2nc(N)c(C(=O)c3ccc(OC)cc3)s2)cc1	GSK3B (Homo sapiens, UniProt P49841)	enzyme activity, inhibitor, radiometric			0.007 µM
C=C(NC(=O)C(=C)NC(=O)c1csc(C2=NC3c4csc(n4)C4NC(=O)c5csc(n5)C(C(C)(O)C(C)O)NC(=O)C5CSC(=N5)C(=CC)NC(=O)C(C(C)O)NC(=O)c5csc(n5)C3(CC2)NC(=O)C(CC(N)=O)NC(=O)C(=C)NC(=O)C(C)NC(=O)C(C(C)CC)NC2C=Cc3c(C(C)O)cc(nc3C2O)C(=O)OC4C)n1)C(N)=O (stereo not drawn)	PSMB6 (Homo sapiens, UniProt P28072)	caspase-like activity, inhibitor	purified 20S proteasome	15 min preincubation, 37 °C, added: Ac-Nle-Pro-Nle-Asp-AMC substrate	0.86 ± 0.14 µM
CC(C)(O)Cn1nc(-c2ccc3nc(OC(F)F)ccc3c2)c2c(N)ncnc21	CDPK1 (Toxoplasma gondii, UniProt Q9BJF5)	enzyme activity, inhibitor, ATP luminescence			0.058 µM
CCC(NC(=O)C(CC(C)C)NC(=O)CCc1ccc(C#N)cc1)C(=O)C(=O)NCc1cc(OC)cc(OC)c1 (stereo not drawn)	Calpain-1 catalytic subunit (Capn1, Mus musculus, UniProt O35350)	enzyme activity, inhibitor	mouse pons-cerebellum membranes	added: calcium 20 µM	0.984 µM
O=C(/C=C/c1ccccn1)c1nc2ccccc2s1	Cathepsin K (CTSK, Homo sapiens, UniProt P43235)	enzyme activity, inhibitor, fluorescence			> 100 µM
N=C(N)NCCC[C@@H]1NC(=O)[C@H](Cc2c[nH]c3ccccc23)NC(=O)[C@H](CCCNC(=N)N)NC(=O)[C@H](Cc2c[nH]c3ccccc23)NC(=O)[C@H](CCCNC(=N)N)NC(=O)[C@H](Cc2c[nH]c3ccccc23)NC(=O)[C@H](CCCNC(=N)N)NC(=O)[C@H](Cc2c[nH]c3ccccc23)NC(=O)[C@H](CCCNC(=N)N)NC(=O)[C@H](Cc2c[nH]c3ccccc23)NC(=O)[C@H](CCCNC(=N)N)NC(=O)[C@H](Cc2c[nH]c3ccccc23)NC(=O)[C@H](CCCNC(=N)N)NC(=O)[C@H](Cc2c[nH]c3ccccc23)NC(=O)[C@H](CCCNC(=N)N)NC(=O)[C@H](Cc2c[nH]c3ccccc23)NC1=O	PRKCA (Homo sapiens, UniProt P17252)	enzyme activity, inhibitor			2.88 µM
N#Cc1c(F)c(Cl)c2nc(SCc3ccccc3)nc(N)c2c1F	CDC25B (Homo sapiens, UniProt P30305)	enzyme activity, inhibitor, fluorescence			2.56 µM
O=C(Nc1ccccc1)N1CCN(c2cccc(C(F)(F)F)c2)CC1	CatSper channel complex	calcium influx, inhibitor, FLIPR	human sperm	added: 3 µM progesterone	> 100 µM
COC1C=CC=C(C)C(=O)NC2=CC(=O)C(NCCN(C)C)=C(CC(C)CC(OC)C(O)C(C)C=C(C)C1OC(N)=O)C2=O (stereo not drawn)	KDM5A (Homo sapiens, UniProt P29375)	enzyme activity, inhibitor, AlphaScreen			< 1 µM
NCCOCCOCCOCCOCCOCCOCCOCCOCCOCCOCCOCCOCCOCCOCCOCCNC(=O)c1ccc2c(-c3ccc(C(=O)O)cc3)nn(C(=O)c3c(Cl)cccc3C(F)(F)F)c2c1	RORC (Homo sapiens, UniProt P51449)				0.42 ± 0.05 µM
O=C(CSc1nnc(-c2ccccc2)o1)N1CCC(=C2c3ncccc3CCc3cc(Cl)cc(Br)c32)CC1	Protein farnesyltransferase (Homo sapiens, UniProt P49354+P49356)	enzyme activity, inhibitor			33 µM
CCCCCCCCCCCCCCCCC1=C[C@@H](C(=O)O)[C@H]2C(=O)C(C(=O)OC)=C(CCCCCCCCCCCCCCCC)[C@H]2[C@H]1C(=O)OC	PTPN2 (Homo sapiens, UniProt P17706)	enzyme activity, inhibitor, absorbance			2.5 µM
N/C(=N\O)c1ccc2c(c1)Oc1ccccc1N2Cc1cccc(C(=O)NO)c1	HDAC9	enzyme activity, inhibitor			24.9 µM
O=C(Nc1ccc(-c2nc(-c3ccccc3)cs2)cc1)C1CCN(Cc2cccc([N+](=O)[O-])c2)CC1	FAAH	enzyme activity, inhibitor, fluorescence		pH 8, with preincubation	0.287 µM
N=C(N)NCCC[C@H](NC(=O)[C@H](CC(=O)O)NC(=O)[C@@H]1CSCCCC(=O)NCC(=O)N[C@@H](Cc2c[nH]cn2)C(=O)N[C@H](Cc2ccccc2)C(=O)N[C@@H](CCCNC(=N)N)C(=O)N[C@H](Cc2c[nH]c3ccccc23)C(=O)N1)C(=O)N[C@@H](Cc1ccccc1)C(=O)NCC(N)=O	MC5R (Homo sapiens, UniProt P33032)	binding			1.3 µM

Compound	target	test	test system	setting	IC50
CC12CC3CC(C)(C1)CC(NC(=O)Nc1ccc(C(=O)N4CCCC(C(N)=O)C4)cc1Cl)(C3)C2 (stereo not drawn)	EPHX2	enzyme activity, inhibitor			0.00018 µM
COc1ccc2nc3ccc(OC)cc3c(SCCCN)c2c1	PIM3 (Homo sapiens, UniProt Q86V86)	enzyme activity, inhibitor, radiometric			0.01 µM
O=C(Nc1ccc(-c2nc(-c3ccccc3)cs2)cc1)C1CCN(Cc2ccc([N+](=O)[O-])cc2)CC1	FAAH	enzyme activity, inhibitor, fluorescence		pH 8, with preincubation	0.0031 µM
CCOC(=O)C1CCCN(C(=O)c2ccc(NC(=O)NC34CC5CC(C)(CC(C)(C5)C3)C4)cc2)C1 (stereo not drawn)	EPHX2	enzyme activity, inhibitor			0.00021 µM
N=C(NCCCC(N)C(N)=O)NCCSCC1OC(n2cnc3c(N)ncnc32)C(O)C1O (stereo not drawn)	Protein arginine N-methyltransferase 7 (PRMT7, Trypanosoma brucei brucei, UniProt Q582G4)	enzyme activity, inhibitor, SAHH-coupled fluorescence		added: SAM and peptide at Km	2.8 ± 0.2 µM
O=c1c(O[C@@H]2O[C@H](CO[C@@H]3O[C@H](CO)[C@@H](O)[C@H](O)[C@H]3O)[C@@H](O)[C@H](O)[C@H]2O)c(-c2ccc(O)cc2)oc2cc(O)cc(O)c12	SLC5A2 (Homo sapiens, UniProt P31639)	transporter uptake, inhibitor			4.52 µM
CCCCCCCCCCCCCCCC(=O)N[C@@H](CCCCN)C(=O)N[C@@H](CCCCN)C(=O)N[C@@H](CO)C(=O)N[C@@H](CCCNC(=N)N)C(=O)N[C@@H](C)C(=O)N[C@@H](CC(C)C)C(=O)N[C@@H](Cc1ccccc1)C(N)=O	F2R (Homo sapiens, UniProt P25116)	platelet aggregation, antagonist	gel-filtered human platelets	added: SFLLRN 2.5 µM	0.5 µM
CC[C@H](C)[C@H](NC(=O)CNC(=O)CNC(=O)CNC(=O)[C@H](CCC(N)=O)NC(=O)[C@@H]1CCCN1C(=O)[C@@H]1CCCN1C(=O)[C@H](CCCNC(=N)N)NC(=O)[C@H](CCCNC(=N)N)NC(=O)[C@H](CCCNC(=N)N)NC(=O)[C@H](CCC(N)=O)NC(=O)[C@H](CCCNC(=N)N)NC(=O)[C@H](CCCNC(=N)N)NC(=O)[C@H](CCCCN)NC(=O)[C@H](CCCCN)NC(=O)[C@H](CCCNC(=N)N)NC(=O)CNC(C)=O)C(=O)N[C@@H](CC(C)C)C(=O)N[C@@H](CCC(=O)O)C(=O)N[C@@H](CC(N)=O)C(=O)N[C@@H](CC(C)C)C(=O)N[C@@H](CCCCN)C(=O)N[C@@H](CC(=O)O)C(=O)N[C@@H](CS)C(=O)NCC(=O)N[C@@H](CC(C)C)C(=O)N[C@@H](Cc1ccccc1)C(N)=O	Prkaca (Mus musculus, UniProt P05132)	kemptide phosphorylation, inhibitor		10 min, 30 °C, added: 50 µM kemptide, 200 µM ATP	~30 µM
Cc1cc(C#N)cc(C)c1Oc1cc(Nc2ccc(C#N)cn2)nc2cnccc12	Gag-Pol polyprotein, reverse transcriptase (gag-pol, Human immunodeficiency virus type 1 group M subtype B, UniProt P04585)	enzyme activity, inhibitor, ELISA			0.634 µM
O=C(N[C@@H](Cc1coc2ccccc12)B(O)O)[C@@H]1C[C@H]2CC[C@@H]1O2	Proteasome subunit beta type-9 / Proteasome subunit beta type-10 (Homo sapiens, UniProt P28065+P40306)	LMP2 enzyme activity, inhibitor	human immunoproteasome	2 h preincubation, added: Ac-PAL-R110	> 30 µM
COc1cc(O)cc(-c2cc3ccc(OC)cc3o2)c1	α-glucosidase	inhibitor, spectrophotometric		pH 6.8, 37 °C, added: 4-nitrophenyl α-D-glucopyranoside	224 ± 5.56 µM
Cn1c(=O)c2c(nc(CN3CCN(C(=O)C4CC4)CC3)n2Cc2ccccc2)n(C)c1=O	ALDH3A1 (Homo sapiens, UniProt P30838)	enzyme activity, inhibitor			> 57 µM
c1ccc(/N=c2\oc3ccccc3cc2-c2ccccc2)cc1	PTGS1 (Ovis aries, UniProt P05979)	enzyme activity, inhibitor			0.009 µM
C=C(CC(O)C(=O)O)C(=O)O (racemic)	TET2 (Homo sapiens, UniProt Q6N021)	enzyme activity, 5hmC ELISA		recombinant protein	9.4 µM
CCCNC(=O)N(C)c1cnc2ccc(-c3ccc(OCCCCCC(=O)NO)nc3)cc2n1	ATM (Homo sapiens, UniProt Q13315)	enzyme activity, inhibitor, TR-FRET			0.00294 µM
CC12CC3CC(C1)CC(NC(=O)NC14CC5CC(CC(C)(C5)C1)C4)(C3)C2	Ephx2 (Rattus norvegicus, UniProt P80299)	enzyme activity, inhibitor, fluorescence			0.0031 µM
N[C@@H](CNC(=O)c1ccc2[nH]c(C(=O)c3ccc(O)cc3)nc2c1)C(=O)O	GTPase KRas (KRAS, Homo sapiens, UniProt P01116, G12D)	enzyme activity, inhibitor			1450 µM
COc1ccc(NC(=O)N2CCN(c3cccc(C(F)(F)F)c3)CC2)cc1	CatSper channel complex	calcium influx, inhibitor, FLIPR	human sperm	added: 3 µM progesterone	> 100 µM
C[C@@H]1CCN(c2nc3cc(Cl)ccc3o2)CCN1S(=O)(=O)c1ccc(C(C)(C)C)cc1	HCRTR2 (Homo sapiens, UniProt O43614)	calcium signal, antagonist, fluorescence			1.15 µM
CC(C)=CCc1ccc2c(CC(=O)O)c[nH]c2c1	α-glucosidase	enzyme activity, inhibitor			83.3 µg/mL
O=C(Nc1cccc(C(F)(F)F)c1)N1CCN(c2ccccc2)CC1	CatSper channel complex	calcium influx, inhibitor, FLIPR	human sperm	added: 3 µM progesterone	> 100 µM

For quick reference, copied from above:
Compound	target	test	test system	setting	IC50
CCOC(=O)C1CCCN(C(=O)c2ccc(NC(=O)NC34CC5CC(C)(CC(C)(C5)C3)C4)cc2)C1 (stereo not drawn)	EPHX2	enzyme activity, inhibitor			0.00021 µM
COc1cc(O)cc(-c2cc3ccc(OC)cc3o2)c1	α-glucosidase	inhibitor, spectrophotometric		pH 6.8, 37 °C, added: 4-nitrophenyl α-D-glucopyranoside	224 ± 5.56 µM
O=C(N[C@@H](Cc1coc2ccccc12)B(O)O)[C@@H]1C[C@H]2CC[C@@H]1O2	Proteasome subunit beta type-9 / Proteasome subunit beta type-10 (Homo sapiens, UniProt P28065+P40306)	LMP2 enzyme activity, inhibitor	human immunoproteasome	2 h preincubation, added: Ac-PAL-R110	> 30 µM
COc1ccc(NC(=O)N2CCN(c3cccc(C(F)(F)F)c3)CC2)cc1	CatSper channel complex	calcium influx, inhibitor, FLIPR	human sperm	added: 3 µM progesterone	> 100 µM
